Experimental data of several laboratories.
Each line is one published result; not all experiments were run side by side. ± gives the spread as reported. In brackets after ≈: the same amount, converted by molar mass.

O=C(O)CCCC[C@@H]1SC[C@@H]2NC(=O)N[C@@H]21 — EC20 (cytochrome c release, ELISA; BALB/cByJ female mouse liver mitochondria; 30 min; relative to: alamethicin maximal release): > 400 µM
CC(C)[C@H](NC(=O)[C@@H]1CCCN1C(=O)[C@H](CCCNC(=N)N)NC(=O)[C@H](CS)NC(=O)[C@H](Cc1c[nH]c2ccccc12)NC(=O)[C@H](CCCNC(=N)N)NC(=O)[C@@H](Cc1ccccc1)NC(=O)[C@H](Cc1c[nH]cn1)NC(=O)[C@H](CCC(=O)O)NC(=O)[C@H](CS)NC(=O)[C@H](CS)NC(=O)[C@H](CCCCN)NC(=O)[C@@H]1CC(=O)N[C@@H](CCCNC(=N)N)C(=O)N[C@@H](C)C(=O)N[C@@H](CC(=O)O)C(=O)N[C@H](Cc2ccc(O)cc2)C(=O)N1)C(N)=O [technetium-99m labelled] — tissue uptake (C57 mice, intestines; iv, 0.037 MBq, 24 h): 0.85 ± 0.42 %ID
CS/C(S)=N/CCCC[S+](C)[O-] (racemic) — mRNA fold change (RT-PCR, refers to: Gstp1; rat, colon; oral gavage, 200 mg/kg, 96 h, dosed for four days; relative to: vehicle): 2.52
CC[C@H]1OC(=O)[C@H](C)[C@@H](O[C@H]2C[C@@](C)(OC)[C@@H](O)[C@H](C)O2)[C@H](C)[C@@H](O[C@@H]2O[C@H](C)C[C@H](N(C)C)[C@H]2O)[C@](C)(O)C[C@@H](C)C(=O)[C@H](C)[C@@H](O)[C@]1(C)O — sensitive strains (other Enterobacteriaceae; community-acquired pneumonia patients; Fine score 70 or more): 0%
insulin aspart — AUC glucose infusion rate (euglycaemic clamp; type 1 diabetes patients; subcutaneous, 0.2 U/kg single, 2 h to 12 h, antibody quartile 4, 15.84-66.94 %B/T): 775 mg/kg
COc1ccc(-c2nc3ccccc3s2)cc1OCc1nnc(-c2c(C)cccc2C)o1 — minimal effective dose (seizure protection; albino mouse, scPTZ-induced seizure; ip, 4.0 h): 300 mg/kg
Cc1cc(-c2nnc(N)nc2-c2ccc(F)cc2)cc(Cl)n1 — median progression-free survival (human mCRPC, high blood adenosine signature; dose not given, monotherapy or plus durvalumab): 21 weeks
C[C@H]1C[C@H]2CSC(N)=N[C@@]2(c2nc(NC(=O)c3ccc(OC(F)F)cn3)cs2)CO1 — change from baseline (refers to: CSF Aβx-38; healthy adults; 275 mg once daily, 14 days, day 15; relative to: placebo-adjusted baseline): -88.7%
CN(C)Cc1cc(OCCC[18F])ccc1Sc1ccccc1N — tissue uptake (SERT; male Sprague Dawley rat, PCA-treated, cortex; intravenous, 60 min): 0.16 ± 0.04 %ID/g
Cn1c(-c2ccc(C(N)=O)cc2F)nnc1C(C)(C)Oc1c(F)cc(Cl)cc1F — median Tmax (young non-Japanese humans, plasma; oral, 2 mg, day 1, single dose): 1 h
CC(=O)O[C@H]1[C@H]2[C@H]([C@@H]3[C@@H](O)[C@@H]4[C@H]([C@H](C)[C@H]5O[C@]56OC(=O)[C@@](C)(O)[C@]46C)[C@@]3(C)[C@H]1OC(C)=O)[C@@H](OC(=O)CC(C)C)C(=O)[C@H]1C[C@@H]3O[C@@H]3[C@H](OC(C)=O)[C@]21C — time to tumour volume (mice with NCI/ADR-RES xenograft; intratumoral, 20 µg, tumour reached 1500 mm3 from 338-450 mm3): 19 to 38 days
COc1cccc2c1C(=O)c1c(O)c3c(c(O)c1C2=O)C[C@@](O)(C(=O)CO)C[C@@H]3O[C@H]1C[C@H](N)[C@H](O)[C@H](C)O1 — tumour volume (mice bearing T47D xenografts; 5 mg/kg once weekly, 17 days after inoculation, treated 2 weeks): 63.3 ± 16.9 mm3
CC[C@H]1OC(=O)[C@H](C)[C@@H](O[C@H]2C[C@@](C)(OC)[C@@H](O)[C@H](C)O2)[C@H](C)[C@@H](O[C@@H]2O[C@H](C)C[C@H](N(C)C)[C@H]2O)[C@](C)(O)C[C@@H](C)CN(C)[C@H](C)[C@@H](O)[C@]1(C)O — sensitive strains (all pathogens; community-acquired pneumonia patients; Fine score below 70): 73.6%
COc1cc([C@H]2Oc3cc(O)cc(O[C@@H]4O[C@H](C(=O)O)[C@@H](O)[C@H](O)[C@H]4O)c3C[C@H]2O)ccc1O — LTP fEPSP slope (Tg2576 mouse old, hippocampal slices CA1; 300 nM, with: theta-burst stimulation; relative to: baseline): 225 ± 15%
COc1ccc(-c2nc3ccccc3s2)cc1OCc1nnc(-c2ccc(N)cc2)o1 — minimal effective dose (seizure protection; albino mouse, scPTZ-induced seizure; ip, 0.5 h): 30 mg/kg
CNCc1ccc(-c2[nH]c3cc(F)cc4c3c2CCNC4=O)cc1 — half-life (human, plasma; oral, 600 mg twice daily, steady state, median): 10.9 h
COc1ccc(-c2nc3ccccc3s2)cc1OCc1nnc(-c2c(OC)cccc2OC)o1 — minimal effective dose (seizure protection; albino mouse, scPTZ-induced seizure; ip, 0.5 h): 100 mg/kg
Cc1cnc(-c2ccnc(C(C)(C)O)n2)cc1-n1c(C)cc(OCc2ncc(F)cc2F)c(Cl)c1=O — IC80 (IL-8 release, inhibitor; human, whole blood, ex vivo; plasma concentration, with: LPS): 0.0388 µg/mL (≈ 0.0755 µM)
COc1ccc(-c2nc3ccccc3s2)cc1OCc1nnc(Cc2ccccc2)o1 — minimal effective dose (hind limb tonic extension; albino mouse, MES-induced seizure; ip, 0.5 h): 100 mg/kg
COC(=O)C=Cc1ccc(O)c(O)c1 — radical scavenging (DPPH; ethanol; 20 µM, 30 min, room temperature): 72%
CC[C@H]1OC(=O)[C@H](C)[C@@H](O[C@H]2C[C@@](C)(OC)[C@@H](O)[C@H](C)O2)[C@H](C)[C@@H](O[C@@H]2O[C@H](C)C[C@H](N(C)C)[C@H]2O)[C@](C)(O)C[C@@H](C)/C(=N\OCOCCOC)[C@H](C)[C@@H](O)[C@]1(C)O — EC20 (cytochrome c release, ELISA; BALB/cByJ female mouse liver mitochondria; 30 min; relative to: alamethicin maximal release): > 400 µM
glutathione — IC50 (hydroxyl radical scavenging; 60 min, pH 7.4): < 15 µg/mL
COc1ccc(-c2nc3ccccc3s2)cc1OCc1nnc(-c2ccc(O)cc2)o1 — minimal effective dose (seizure protection; albino mouse, scPTZ-induced seizure; ip, 4.0 h): 30 mg/kg
[2H]c1c([2H])c([2H])c2c(C([2H])([2H])[2H])c3c(c([2H])c([2H])c4c([2H])c([2H])c([2H])c([2H])c43)c(C([2H])([2H])[2H])c2c1[2H] — non-protective dose (adrenal apoplexy prevention; rat; oral, with: 7,12-DMBA 5 mg i.v.): 1 mg
COc1ccc(-c2nc3ccccc3s2)cc1OCc1nnc(-c2ccc([N+](=O)[O-])cc2)o1 — minimal effective dose (seizure protection; albino mouse, scPTZ-induced seizure; ip, 0.5 h): 30 mg/kg
CC(C)[C@@H]1CC[C@@H](C)C[C@H]1O — time to return to control activity (mice; subcutaneous, 100 to 800 mg/kg; relative to: saline): ≤ 60 min

Some of these lines once more:
CC(=O)O[C@H]1[C@H]2[C@H]([C@@H]3[C@@H](O)[C@@H]4[C@H]([C@H](C)[C@H]5O[C@]56OC(=O)[C@@](C)(O)[C@]46C)[C@@]3(C)[C@H]1OC(C)=O)[C@@H](OC(=O)CC(C)C)C(=O)[C@H]1C[C@@H]3O[C@@H]3[C@H](OC(C)=O)[C@]21C — time to tumour volume (mice with NCI/ADR-RES xenograft; intratumoral, 20 µg, tumour reached 1500 mm3 from 338-450 mm3): 19 to 38 days
COc1cccc2c1C(=O)c1c(O)c3c(c(O)c1C2=O)C[C@@](O)(C(=O)CO)C[C@@H]3O[C@H]1C[C@H](N)[C@H](O)[C@H](C)O1 — tumour volume (mice bearing T47D xenografts; 5 mg/kg once weekly, 17 days after inoculation, treated 2 weeks): 63.3 ± 16.9 mm3
CC[C@H]1OC(=O)[C@H](C)[C@@H](O[C@H]2C[C@@](C)(OC)[C@@H](O)[C@H](C)O2)[C@H](C)[C@@H](O[C@@H]2O[C@H](C)C[C@H](N(C)C)[C@H]2O)[C@](C)(O)C[C@@H](C)CN(C)[C@H](C)[C@@H](O)[C@]1(C)O — sensitive strains (all pathogens; community-acquired pneumonia patients; Fine score below 70): 73.6%
